Measured values pooled from the literature.
Each numbered part is a random draw from the data of one study; scales do not carry over between parts. Changes are numbered by the printed parent chain.

Set 1 — target: CCND3, cyclin fold, Cln2 fusion (human); technique: yeast growth competition, sequencing; matrix: yeast; setting: weak parent motif; relative to: not given; reading: higher = stronger binding
Parent: CDC6 docking peptide (human); TLKGRRLVFDNQL; partner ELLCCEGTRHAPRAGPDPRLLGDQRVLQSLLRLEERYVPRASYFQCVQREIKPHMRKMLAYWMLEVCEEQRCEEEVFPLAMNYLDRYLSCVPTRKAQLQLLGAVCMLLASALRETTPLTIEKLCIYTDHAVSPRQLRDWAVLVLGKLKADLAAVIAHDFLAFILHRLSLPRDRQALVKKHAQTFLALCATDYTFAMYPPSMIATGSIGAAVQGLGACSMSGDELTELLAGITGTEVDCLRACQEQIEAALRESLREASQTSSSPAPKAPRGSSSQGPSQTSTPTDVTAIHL
| Change | normalised enrichment score |
| --- | --- |
| DLKGRRLVFDNQL [T1D] | 0.0586 |
| TLKYRRLVFDNQL [G4Y] | 0.0484 |
| TCKGRRLVFDNQL [L2C] | 0.0954 |
| TLKNRRLVFDNQL [G4N] | 0.0806 |
| TNKGRRLVFDNQL [L2N] | 0.154 |
| TLKGRRLNFDNQL [V8N] | 0.224 |
| TLKGRRLVFDTQL [N11T] | 0.145 |

Set 2 — technique: aptamer microarray, sandwich; form: DNA with 2'F-ANA; matrix: in vitro; concentration: 200 nM; with: Cy3 exosite-II aptamer, 400 nM; reading: higher = stronger binding; strand: GGTTGGTGTGGTTGG
Target: Prothrombin, mature alpha-thrombin (F2, Homo sapiens, UniProt P00734)
Setting: whole 15-mer aptamer, many near background
| Modification | mean fluorescence intensity |
| --- | --- |
| 2'F-ANA at 2 7 8 9 15 | 506 a.u. |
| 2'F-ANA at 1 3 4 6 9 10 13 14 | 62 a.u. |
| 2'F-ANA at 1 8 9 11 12 13 | 274 a.u. |
| 2'F-ANA at 2 3 5 6 8 10 13 14 15 | 60 a.u. |
| 2'F-ANA at 1 2 4 6 8 9 10 12 13 | 76.5 a.u. |
| 2'F-ANA at 2 9 10 14 15 | 87.1 a.u. |
| 2'F-ANA at 2 4 5 6 11 12 13 14 15 | 54.9 a.u. |

Set 3 — technique: universal PBM; form: double-stranded DNA, one strand shown; matrix: in vitro; concentration: 600 nM; reading: higher = stronger binding
Target: Sal-like protein 4, full length isoform A (SALL4, Homo sapiens, UniProt Q9UJQ4, residues 1-1053)
UniProt Q9UJQ4, sequence (whole entry, looked up): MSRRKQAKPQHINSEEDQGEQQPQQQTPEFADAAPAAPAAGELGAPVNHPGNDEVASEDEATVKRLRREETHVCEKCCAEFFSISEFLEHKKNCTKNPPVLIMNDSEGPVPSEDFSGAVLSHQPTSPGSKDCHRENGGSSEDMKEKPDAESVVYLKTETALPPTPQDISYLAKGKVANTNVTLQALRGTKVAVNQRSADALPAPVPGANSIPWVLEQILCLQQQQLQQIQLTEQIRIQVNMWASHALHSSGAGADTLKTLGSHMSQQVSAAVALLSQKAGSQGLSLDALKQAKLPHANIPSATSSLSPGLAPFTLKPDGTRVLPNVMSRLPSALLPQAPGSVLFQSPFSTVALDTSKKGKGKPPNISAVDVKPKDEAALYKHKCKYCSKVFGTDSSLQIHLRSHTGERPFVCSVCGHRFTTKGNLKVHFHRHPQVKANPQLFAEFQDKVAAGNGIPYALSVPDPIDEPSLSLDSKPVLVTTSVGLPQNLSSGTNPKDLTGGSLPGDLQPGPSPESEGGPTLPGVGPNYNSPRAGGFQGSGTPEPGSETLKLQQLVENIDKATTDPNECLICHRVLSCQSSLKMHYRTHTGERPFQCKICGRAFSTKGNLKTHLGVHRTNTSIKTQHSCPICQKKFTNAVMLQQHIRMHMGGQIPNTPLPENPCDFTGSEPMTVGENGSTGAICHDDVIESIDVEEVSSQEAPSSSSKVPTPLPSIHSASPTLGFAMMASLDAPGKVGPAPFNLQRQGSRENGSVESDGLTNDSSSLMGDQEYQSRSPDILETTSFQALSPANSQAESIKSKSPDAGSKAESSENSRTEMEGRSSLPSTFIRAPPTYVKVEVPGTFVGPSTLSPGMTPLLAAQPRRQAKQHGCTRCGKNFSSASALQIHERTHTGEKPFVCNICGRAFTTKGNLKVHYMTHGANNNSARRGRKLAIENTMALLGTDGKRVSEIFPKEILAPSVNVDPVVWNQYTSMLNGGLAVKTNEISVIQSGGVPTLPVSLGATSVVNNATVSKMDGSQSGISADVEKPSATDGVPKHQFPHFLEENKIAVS
Setting: 8-mer, flanks averaged, mean of replicates
| Strand | E-score |
| --- | --- |
| AGCTGGAT | -0.086 |
| AACTTTAG | 0.159 |
| ATTCGCCA | 0.0494 |
| ATTAGTCG | 0.0706 |
| AATGTTTA | 0.322 |
| CTCCTCGA | -0.19 |
| GTCATGCA | 0.0607 |

Mixed results
| Molecule | target | assay | test system | setting | scale | quantity | value |
| --- | --- | --- | --- | --- | --- | --- | --- |
| PhoQ, residues 284 288 289 292 302 303 GASLAW | PhoP, residues 12 14 15 18 19 AWHSL (Escherichia coli, UniProt P23836) | Sort-seq, item: YFP reporter | E. coli | PhoQ-PhoP variant library, with: 10 µM Mg2+ | relative to: high Mg2+ state, higher = stronger signaling | fold induction | 1.32 |

A few entries again (set 1):
| Change | normalised enrichment score |
| --- | --- |
| TLKGRRLNFDNQL [V8N] | 0.224 |
